Published values of several laboratories.
Each line is one published result; not all experiments were run side by side. ± gives the spread as reported.

| SMILES | cell line | assay | conditions | CC50 |
| --- | --- | --- | --- | --- |
| COc1ccc2nc3ccc(F)cc3c(Nc3ccc(O)c(CN4CCCC4)c3)c2c1 | U2OS-ACE2-GFP |  | 20 (unit not given) | 4.03 µM |
| CC(C)(C)SSc1ccccc1CCOP1(=O)OC[C@H]2O[C@@H](n3ccc(=O)[nH]c3=O)[C@](C)(F)[C@@H]2O1 (some centres unmarked) | Huh-7 | MTS | 4 days | 2.9 µM |
| C1=[N+]2CCCC[N+]3=Cc4ccc5[n]4[Au-]23[n]2c1ccc2-c1nc2ccccc2nc1-5.F[P-](F)(F)(F)(F)F | colon cancer cell lines |  | NCI60 panel mean | 89 µM |
| COc1cc2c3cc1Oc1cc(ccc1O)CC1c4c(cc(OC)c(O)c4Oc4ccc(cc4)CC3N(C)CC2)CCN1C (centres unmarked) | Huh-7 | cell growth or viability, MTT | 24 h | 62.8 µM |
| Cc1ccc(NCC(=O)N2CCCC3=CC4CC(CN5CCCCC45)C32)cc1 (centres unmarked) | Huh-7 | cytotoxicity |  | > 267 µM |
| CCCCCCCOP(=O)(O)Oc1c2c(c(OP(=O)(O)OCCCCCCC)c3c1C1CC3c3cc4c(cc31)C1CC4c3ccccc31)C1CC2c2cc3c(cc21)C1CC3c2ccccc21 | Caco-2 | CellTiter-Glo | 2 days | 213 µM |
| CCC(=O)C[C@@H](O)C[C@@H](C)C[C@H](NC(=O)[C@@H]1C[C@H](C)CN1C(=O)/C=C/[C@@H](C)CC)C(=O)N[C@H](C(=O)NC(C)(C)C(=O)N[C@@H](CC(C)C)C(=O)N[C@@H](CC(C)C)C(=O)NC(C)(C)C(=O)NC(C)(C)C(=O)NCCC(=O)N[C@@H](C)CNC)[C@H](O)C(C)C | C2C12 | cell growth or viability, imaging | 72 h | > 1.5 µM |
| C=CCCCOP(=O)(O)Oc1c2c(c(OP(=O)(O)OCCCC=C)c3c1C1CC3c3cc4c(cc31)C1CC4c3ccccc31)C1CC2c2cc3c(cc21)C1CC3c2ccccc21 | Caco-2 | CellTiter-Glo | 2 days | 194 µM |
| CC(C)C[C@H](NC(=O)[C@H](Cc1c[nH]cn1)NC(=O)[C@H](Cc1c[nH]cn1)NC(=O)[C@H](CC(C)C)NC(=O)[C@H](Cc1ccccc1)NC(=O)[C@H](Cc1c[nH]cn1)NC(=O)[C@H](CC(C)C)NC(=O)[C@@H](N)Cc1ccccc1)C(=O)N[C@@H](Cc1ccccc1)C(N)=O | Huh-7.5.1 | cell growth or viability, MTT | 48 h | > 500 µg/mL |
| CCCCCCCCOP(=O)(O)Oc1c2c(c(OP(=O)(O)OCCCCCCCC)c3c1C1CC3c3cc4c(cc31)C1CC4c3ccccc31)C1CC2c2cc3c(cc21)C1CC3c2ccccc21 | Caco-2 | CellTiter-Glo | 2 days | 123 µM |
| O=C(CCN(CCC(=O)N[C@@H](Cc1c[nH]c2ccccc12)C(=O)O)C(=O)CCN(CCC(=O)N(CCC(=O)N[C@@H](Cc1c[nH]c2ccccc12)C(=O)O)CCC(=O)N[C@@H](Cc1c[nH]c2ccccc12)C(=O)O)C(=O)CCC(CCC(=O)N(CCC(=O)N(CCC(=O)N[C@@H](Cc1c[nH]c2ccccc12)C(=O)O)CCC(=O)N[C@@H](Cc1c[nH]c2ccccc12)C(=O)O)CCC(=O)N(CCC(=O)N[C@@H](Cc1c[nH]c2ccccc12)C(=O)O)CCC(=O)N[C@@H](Cc1c[nH]c2ccccc12)C(=O)O)(CCC(=O)N(CCC(=O)N(CCC(=O)N[C@@H](Cc1c[nH]c2ccccc12)C(=O)O)CCC(=O)N[C@@H](Cc1c[nH]c2ccccc12)C(=O)O)CCC(=O)N(CCC(=O)N[C@@H](Cc1c[nH]c2ccccc12)C(=O)O)CCC(=O)N[C@@H](Cc1c[nH]c2ccccc12)C(=O)O)[N+](=O)[O-])N[C@@H](Cc1c[nH]c2ccccc12)C(=O)O | MT4 |  |  | > 100 µM |
| Oc1c(CN2CCCC2)cc(Nc2c3ccc(Cl)cc3nc3ccc(Cl)cc23)cc1CN1CCCC1 | U2OS-ACE2-GFP |  | 20 (unit not given) | 8.86 µM |
| O=C(CN1CCCC2=CC3CC(CN4CCCCC34)C21)Nc1cc(Cl)cc(OC(F)(F)F)c1 (centres unmarked) | Huh-7 | cytotoxicity |  | 62.8 µM |
| O=C1Nc2ccc(Cl)cc2C1=Cc1c(Cl)[nH]c2c1ccc1ccccc12 | NCI-60 cell panel |  | 48 h, panel mean | 51.3 µM |
| O=C1C(O)=C(Nc2ccccc2Cl)C(=O)c2ccccc21 | Calu-3 | cell growth or viability | 72 h | 77 µM |
| CC[C@H](C)[C@H](NC(=O)[C@H](CCCCN)NC(=O)[C@H](CC(N)=O)NC(=O)[C@H](CC(C)C)NC(=O)[C@H](Cc1ccccc1)NC(=O)[C@H](CCCCN)NC(=O)[C@H](CCCCNC(=N)N)NC(=O)[C@H](CC(C)C)NC(=O)[C@H](CC(C)C)NC(=O)[C@H](CCCCN)NC(=O)[C@H](CCCCNC(=N)N)NC(=O)[C@H](CC(C)C)NC(=O)CNC(C)=O)C(=O)N[C@@H](CCCCN)C(=O)N[C@@H](CCCCNC(=N)N)C(N)=O | T cells | CCK-8 | 24 h | 12.4 µM |
| CCCC[C@@H](O)C[C@@H](C)C[C@H](NC(=O)[C@@H]1C[C@H](C)CN1C(=O)/C=C/[C@@H](C)CC)C(=O)N[C@H](C(=O)NC(C)(C)C(=O)N[C@@H](CC(C)C)C(=O)N[C@@H](CC(C)C)C(=O)NC(C)(C)C(=O)NC(C)(C)C(=O)NCCC(=O)N[C@@H](C)CN(C)C)[C@H](O)C(C)C | C2C12 | cell growth or viability, imaging | 72 h | > 1.5 µM |
| CCN(CC)CCCC(C)Nc1c2cc(Cl)ccc2nc2ccc(Cl)cc12 (centres unmarked) | U2OS-ACE2-GFP |  | 20 (unit not given) | ≥ 4.41 µM |
| O=c1nc(NO)ccn1[C@@H]1O[C@H](CO)[C@@H](O)[C@H]1O | CEM | MTS | 4 days | 3.5 µM |
| c1nc(N2CCCCCC2)cnc1CNC12CC3CC(CC(C3)C1)C2 | A549 | MTT |  | > 100 µM |
| CC[C@H](C)[C@H](NC(=O)[C@H](CCCCN)NC(=O)[C@H](CC(N)=O)NC(=O)[C@H](Cc1c[nH]c2ccccc12)NC(=O)[C@H](Cc1ccccc1)NC(=O)[C@H](CCCCN)NC(=O)[C@H](CCCCNC(=N)N)NC(=O)[C@H](CC(C)C)NC(=O)[C@H](Cc1c[nH]c2ccccc12)NC(=O)[C@H](CCCCN)NC(=O)[C@H](CCCCNC(=N)N)NC(=O)[C@H](CC(C)C)NC(=O)CNC(C)=O)C(=O)N[C@@H](CCCCN)C(=O)N[C@@H](CCCCNC(=N)N)C(N)=O | T cells | CCK-8 | 24 h | 31 µM |

| SMILES | cell line | assay | conditions | CC50 |
| --- | --- | --- | --- | --- |
| CC(C)C1=C[C@@]23CC[C@@H]4[C@](C)(CCC[C@@]4(C)C(=O)OCC#CCN4CCCC4)[C@H]2C[C@@H]1[C@H]1C(=O)CCC(=O)[C@H]13 | MDCK | cytotoxicity, MTT | 48 h | 69 µM |
| O=C(CNc1cccc(F)c1)N1CCCC2=CC3CC(CN4CCCCC34)C21 (centres unmarked) | Huh-7 | cytotoxicity |  | > 267 µM |
| CCOc1cccc(NC(=O)CSc2cn(C(=O)OC(C)(C)C)c3ccccc23)c1 | A549 | cytotoxicity, CCK-8 |  | > 100 µM |
| COc1ccc2nc3ccc(C(F)(F)F)cc3c(Nc3ccc(O)c(CN4CCCC4)c3)c2c1 | U2OS-ACE2-GFP |  | 20 (unit not given) | 10.1 µM |
| O=C(c1cc(Cl)cc(Cl)c1)N1CCCC2=CC3CC(CN4CCCCC34)C21 (centres unmarked) | Huh-7 | cytotoxicity |  | 170 µM |
| CC[C@H](C)[C@H](NC(=O)[C@H](CCCCNC(=N)N)NC(=O)[C@H](CC(N)=O)NC(=O)[C@H](CC(C)C)NC(=O)[C@H](Cc1ccccc1)NC(=O)[C@H](CCCCNC(=N)N)NC(=O)[C@H](CCCCNC(=N)N)NC(=O)[C@H](CC(C)C)NC(=O)[C@H](CC(C)C)NC(=O)[C@H](CCCCNC(=N)N)NC(=O)[C@H](CCCCNC(=N)N)NC(=O)[C@H](CC(C)C)NC(=O)CNC(C)=O)C(=O)N[C@@H](CCCCNC(=N)N)C(=O)N[C@@H](CCCCNC(=N)N)C(N)=O | T cells | CCK-8 | 24 h | 5.04 µM |
| CCCCCCCCCC1O[C@@H]2C[C@H]3[C@@H]4CCC5=CC(=O)C=C[C@]5(C)[C@H]4[C@@H](O)C[C@]3(C)[C@]2(C(=O)CO)O1 (some centres unmarked) | human cells |  |  | > 30 µM |
| CC(C)OP(=O)(O)Oc1c2c(c(OP(=O)(O)OC(C)C)c3c1C1CC3c3cc4c(cc31)C1CC4c3ccccc31)C1CC2c2cc3c(cc21)C1CC3c2ccccc21 | Caco-2 | CellTiter-Glo | 2 days | 291 µM |
| O=C(CNc1ccc(I)cc1)N1CCCC2=CC3CC(CN4CCCCC34)C21 (centres unmarked) | Huh-7 | cytotoxicity |  | 107 µM |
| CC(=NCc1ccccc1)c1c(C)cc(=O)n(O)c1O | HepDES19 |  |  | 13.8 ± 7.22 µM |
| C1=C2CCCN(Cc3ccccc3)C2C2CC1C1CCCCN1C2 (centres unmarked) | Huh-7 | cytotoxicity |  | > 267 µM |
| CCN(CC)CCCC(C)Nc1c2ccc(Cl)cc2nc2ccc(OC)nc12 (centres unmarked) | U2OS-ACE2-GFP |  | 20 (unit not given) | 8.25 µM |
| OC[C@H]1[C@@H](O)[C@@H](O)CN1Cc1ccc(I)cc1 | BJ | MTS | 72 h | > 200 µM |
| CCN(CC)CCCC(C)Nc1c2cc(Cl)ccc2nc2ccc(OC)cc12 (centres unmarked) | U2OS-ACE2-GFP |  | 20 (unit not given) | 2.41 µM |
| C#CCOP(=O)(O)Oc1c2c(c(OP(=O)(O)OCC#C)c3c1C1CC3c3cc4c(cc31)C1CC4c3ccccc31)C1CC2c2cc3c(cc21)C1CC3c2ccccc21 | Caco-2 | CellTiter-Glo | 2 days | 184 µM |
| Clc1cc(Cl)cc(CCCN2CCCC3=CC4CC(CN5CCCCC45)C32)c1 (centres unmarked) | Huh-7 | cytotoxicity |  | 58.1 µM |
| CC[C@H](C)[C@@H]1NC(=O)[C@H](CCCCN)NC(=O)[C@H](CCCCN)NC(=O)[C@H](Cc2ccc(O)cc2)NC(=O)[C@H](CC(C)C)NC(=O)[C@@H]2CCCN2C(=O)[C@H](C)NC(=O)CNC(=O)CNC(=O)[C@H](CO)NC(=O)CNC(=O)CNC(=O)[C@H](CO)NC(=O)[C@H](CCC(=O)O)NC(=O)[C@H](CC(C)C)NC(=O)[C@H](CC(C)C)NC(=O)[C@H](CCCCN)NC(=O)[C@H](CCCCN)NC(=O)[C@H]([C@@H](C)CC)NC(=O)[C@H]([C@@H](C)CC)NC(=O)[C@H](CCCCN)NC(=O)[C@H](CCCCN)NC(=O)[C@H](Cc2ccc(O)cc2)NC(=O)[C@H](CC(C)C)NC(=O)[C@@H]2CCCN2C(=O)CNC(=O)CNC(=O)CSC[C@@H](C(N)=O)NC(=O)[C@H](CC(C)C)NC(=O)[C@H](CCCCN)NC(=O)[C@H](CCCCN)NC(=O)[C@H]([C@@H](C)CC)NC1=O | K562 | resazurin | 24 h | 2.8 ± 0.2 µM |
| Cc1ccccc1CN1CCCC2=CC3CC(CN4CCCCC34)C21 (centres unmarked) | Huh-7 | cytotoxicity |  | > 267 µM |
| C=CCCOP(=O)(O)Oc1c2c(c(OP(=O)(O)OCCC=C)c3c1C1CC3c3cc4c(cc31)C1CC4c3ccccc31)C1CC2c2cc3c(cc21)C1CC3c2ccccc21 | Caco-2 | CellTiter-Glo | 2 days | 185 µM |
| CCN(CC)CC#CCOC(=O)[C@]1(C)CCC[C@@]2(C)[C@H]1CC=C1C=C(C(C)C)CC[C@@H]12 | MDCK | cytotoxicity, MTT | 48 h | 24 µM |

Some of these lines once more:
| SMILES | cell line | assay | conditions | CC50 |
| --- | --- | --- | --- | --- |
| CC(C)(C)SSc1ccccc1CCOP1(=O)OC[C@H]2O[C@@H](n3ccc(=O)[nH]c3=O)[C@](C)(F)[C@@H]2O1 (some centres unmarked) | Huh-7 | MTS | 4 days | 2.9 µM |
| C1=C2CCCN(Cc3ccccc3)C2C2CC1C1CCCCN1C2 (centres unmarked) | Huh-7 | cytotoxicity |  | > 267 µM |
| CCN(CC)CC#CCOC(=O)[C@]1(C)CCC[C@@]2(C)[C@H]1CC=C1C=C(C(C)C)CC[C@@H]12 | MDCK | cytotoxicity, MTT | 48 h | 24 µM |
| CCN(CC)CCCC(C)Nc1c2cc(Cl)ccc2nc2ccc(OC)cc12 (centres unmarked) | U2OS-ACE2-GFP |  | 20 (unit not given) | 2.41 µM |
